Experimental data pooled from the literature.
A part holds a random share of what one study measured.
Sequence of UniProt P10721 (whole entry, unmodified, looked up): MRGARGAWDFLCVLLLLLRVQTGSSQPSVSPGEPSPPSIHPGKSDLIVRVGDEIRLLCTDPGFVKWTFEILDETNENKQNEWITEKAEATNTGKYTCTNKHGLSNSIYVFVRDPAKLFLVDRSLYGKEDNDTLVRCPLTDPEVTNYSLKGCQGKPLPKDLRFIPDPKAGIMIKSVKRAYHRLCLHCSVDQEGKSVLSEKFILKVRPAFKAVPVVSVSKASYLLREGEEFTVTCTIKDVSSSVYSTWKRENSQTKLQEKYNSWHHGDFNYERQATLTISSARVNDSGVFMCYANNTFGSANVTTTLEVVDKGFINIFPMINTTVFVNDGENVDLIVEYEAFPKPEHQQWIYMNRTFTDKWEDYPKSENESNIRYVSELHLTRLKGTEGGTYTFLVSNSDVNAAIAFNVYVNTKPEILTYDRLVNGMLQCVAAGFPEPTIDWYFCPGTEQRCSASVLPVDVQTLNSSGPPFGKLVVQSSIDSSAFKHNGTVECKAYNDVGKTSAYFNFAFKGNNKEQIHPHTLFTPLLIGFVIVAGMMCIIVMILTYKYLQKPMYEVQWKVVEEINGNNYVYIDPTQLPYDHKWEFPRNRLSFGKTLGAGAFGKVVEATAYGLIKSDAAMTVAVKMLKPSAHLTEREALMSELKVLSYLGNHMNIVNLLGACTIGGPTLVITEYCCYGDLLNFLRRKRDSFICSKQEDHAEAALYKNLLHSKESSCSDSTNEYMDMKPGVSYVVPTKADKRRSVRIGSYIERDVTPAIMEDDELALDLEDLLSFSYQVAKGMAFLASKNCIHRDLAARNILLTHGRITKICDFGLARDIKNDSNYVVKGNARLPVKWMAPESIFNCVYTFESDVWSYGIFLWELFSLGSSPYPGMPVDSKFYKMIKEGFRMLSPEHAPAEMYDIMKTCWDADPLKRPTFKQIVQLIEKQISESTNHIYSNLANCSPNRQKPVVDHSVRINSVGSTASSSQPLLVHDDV
Sequence of UniProt Q9Y2I7 (whole entry, looked up): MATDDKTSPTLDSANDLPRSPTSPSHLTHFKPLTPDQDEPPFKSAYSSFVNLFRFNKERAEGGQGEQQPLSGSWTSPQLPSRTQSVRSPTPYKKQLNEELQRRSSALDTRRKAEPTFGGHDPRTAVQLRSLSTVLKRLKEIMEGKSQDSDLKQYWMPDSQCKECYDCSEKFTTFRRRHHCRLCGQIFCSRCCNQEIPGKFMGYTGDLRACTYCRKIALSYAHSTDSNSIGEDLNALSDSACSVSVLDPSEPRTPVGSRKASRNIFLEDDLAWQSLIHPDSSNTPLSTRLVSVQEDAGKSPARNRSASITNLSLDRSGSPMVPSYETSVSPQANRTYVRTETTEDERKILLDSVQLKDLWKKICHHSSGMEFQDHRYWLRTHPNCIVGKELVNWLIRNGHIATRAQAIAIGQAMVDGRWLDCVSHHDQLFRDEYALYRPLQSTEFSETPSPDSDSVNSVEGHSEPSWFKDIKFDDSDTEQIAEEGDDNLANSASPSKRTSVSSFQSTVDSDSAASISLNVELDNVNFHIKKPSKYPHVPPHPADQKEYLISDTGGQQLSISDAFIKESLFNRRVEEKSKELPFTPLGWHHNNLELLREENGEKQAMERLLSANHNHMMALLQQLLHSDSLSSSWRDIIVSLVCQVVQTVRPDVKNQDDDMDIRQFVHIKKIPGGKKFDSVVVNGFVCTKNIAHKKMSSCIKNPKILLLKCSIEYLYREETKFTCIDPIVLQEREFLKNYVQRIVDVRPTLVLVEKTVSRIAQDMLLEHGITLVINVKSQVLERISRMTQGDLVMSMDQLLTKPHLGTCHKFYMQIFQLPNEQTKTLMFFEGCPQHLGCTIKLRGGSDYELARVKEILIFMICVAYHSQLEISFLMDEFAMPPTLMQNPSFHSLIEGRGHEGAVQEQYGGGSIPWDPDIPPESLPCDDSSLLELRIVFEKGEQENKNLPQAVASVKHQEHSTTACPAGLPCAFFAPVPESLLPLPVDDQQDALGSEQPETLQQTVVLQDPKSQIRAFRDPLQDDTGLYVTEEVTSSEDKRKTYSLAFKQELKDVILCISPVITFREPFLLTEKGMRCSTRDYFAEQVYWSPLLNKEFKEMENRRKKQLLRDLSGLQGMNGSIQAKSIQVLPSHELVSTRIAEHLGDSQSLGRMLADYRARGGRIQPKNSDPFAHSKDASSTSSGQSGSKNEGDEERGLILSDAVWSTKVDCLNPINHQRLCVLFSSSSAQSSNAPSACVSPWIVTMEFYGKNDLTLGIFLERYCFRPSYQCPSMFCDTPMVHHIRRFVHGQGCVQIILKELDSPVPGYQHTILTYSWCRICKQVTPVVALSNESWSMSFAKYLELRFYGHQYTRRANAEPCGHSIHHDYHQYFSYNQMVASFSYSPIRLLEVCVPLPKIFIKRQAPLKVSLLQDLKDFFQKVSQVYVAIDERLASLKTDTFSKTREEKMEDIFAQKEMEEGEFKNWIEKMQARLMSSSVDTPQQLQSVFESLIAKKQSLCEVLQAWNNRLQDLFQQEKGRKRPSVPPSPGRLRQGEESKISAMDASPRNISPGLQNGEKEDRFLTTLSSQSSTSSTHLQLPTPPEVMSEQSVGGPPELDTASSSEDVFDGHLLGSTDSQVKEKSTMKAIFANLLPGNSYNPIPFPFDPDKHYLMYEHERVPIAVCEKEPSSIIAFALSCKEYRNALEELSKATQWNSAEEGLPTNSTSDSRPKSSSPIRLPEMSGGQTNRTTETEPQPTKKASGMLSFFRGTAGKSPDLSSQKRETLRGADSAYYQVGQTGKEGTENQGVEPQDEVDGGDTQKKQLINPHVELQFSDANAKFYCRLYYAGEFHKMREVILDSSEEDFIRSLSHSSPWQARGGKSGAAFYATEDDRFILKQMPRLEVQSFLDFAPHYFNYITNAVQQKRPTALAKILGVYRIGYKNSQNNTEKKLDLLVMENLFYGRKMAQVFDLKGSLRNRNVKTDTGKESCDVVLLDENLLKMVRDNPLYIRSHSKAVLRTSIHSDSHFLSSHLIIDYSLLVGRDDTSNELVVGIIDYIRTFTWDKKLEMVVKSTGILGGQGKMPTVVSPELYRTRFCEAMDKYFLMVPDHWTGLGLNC
Sequence of UniProt Q9H3Y6 (whole entry, looked up): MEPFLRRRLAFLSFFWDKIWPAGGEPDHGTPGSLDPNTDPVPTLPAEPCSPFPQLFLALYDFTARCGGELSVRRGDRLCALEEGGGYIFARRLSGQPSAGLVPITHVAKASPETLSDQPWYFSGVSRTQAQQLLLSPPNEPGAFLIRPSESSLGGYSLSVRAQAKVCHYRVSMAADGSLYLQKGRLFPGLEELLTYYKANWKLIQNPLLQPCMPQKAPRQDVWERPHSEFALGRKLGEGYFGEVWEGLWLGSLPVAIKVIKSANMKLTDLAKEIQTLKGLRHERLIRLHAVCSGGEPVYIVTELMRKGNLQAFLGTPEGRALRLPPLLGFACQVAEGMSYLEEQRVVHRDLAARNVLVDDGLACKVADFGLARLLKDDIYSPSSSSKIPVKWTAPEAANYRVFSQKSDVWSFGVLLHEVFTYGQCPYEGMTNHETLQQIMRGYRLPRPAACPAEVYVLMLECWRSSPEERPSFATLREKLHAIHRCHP
Sequence of UniProt P16591 (whole entry, looked up): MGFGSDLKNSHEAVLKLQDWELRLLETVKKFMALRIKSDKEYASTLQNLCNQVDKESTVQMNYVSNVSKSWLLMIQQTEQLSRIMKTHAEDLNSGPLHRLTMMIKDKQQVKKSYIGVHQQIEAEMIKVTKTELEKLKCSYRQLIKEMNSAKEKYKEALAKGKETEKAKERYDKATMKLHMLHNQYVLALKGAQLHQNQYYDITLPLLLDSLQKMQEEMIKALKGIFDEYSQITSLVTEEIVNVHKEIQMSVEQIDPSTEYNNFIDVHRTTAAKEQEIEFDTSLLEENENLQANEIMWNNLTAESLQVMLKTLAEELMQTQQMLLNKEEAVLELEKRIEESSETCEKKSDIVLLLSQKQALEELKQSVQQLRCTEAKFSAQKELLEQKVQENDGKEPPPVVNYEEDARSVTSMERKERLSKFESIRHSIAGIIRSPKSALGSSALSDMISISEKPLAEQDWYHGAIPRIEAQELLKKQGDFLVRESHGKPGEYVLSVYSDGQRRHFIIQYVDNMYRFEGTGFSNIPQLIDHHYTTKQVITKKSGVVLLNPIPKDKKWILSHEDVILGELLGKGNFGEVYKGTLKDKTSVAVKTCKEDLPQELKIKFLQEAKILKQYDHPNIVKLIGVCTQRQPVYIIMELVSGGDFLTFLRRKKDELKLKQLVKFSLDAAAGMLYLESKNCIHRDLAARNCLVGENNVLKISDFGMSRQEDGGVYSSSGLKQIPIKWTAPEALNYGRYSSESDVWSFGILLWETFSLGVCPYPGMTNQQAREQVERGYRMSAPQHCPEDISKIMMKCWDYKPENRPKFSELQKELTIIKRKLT

Set 1
Structure (SMILES): Cc1nc(N2CC[C@@H](O)C2)ncc1-c1cc(C(F)(F)F)cc2[nH]ncc12
Method: competition with immobilised ligand
Tested at: 1 µM
Quantity: remaining binding
target = Epidermal growth factor receptor (EGFR, Homo sapiens, UniProt P00533, L861Q); observed = cell-free assay; value = 100%
target = Tyrosine-protein kinase Srms (SRMS, Homo sapiens, UniProt Q9H3Y6); observed = cell-free assay; value = 81%
target = Serine/threonine-protein kinase TAO1 (TAOK1, Homo sapiens, UniProt Q7L7X3); observed = binding; value = 91%
target = Dual specificity mitogen-activated protein kinase kinase 3 (MAP2K3, Homo sapiens, UniProt P46734); observed = binding; value = 90%
target = Tyrosine-protein kinase ABL1, phosphorylated (ABL1, Homo sapiens, UniProt P00519, T315I); observed = binding; value = 69%
target = Mast/stem cell growth factor receptor Kit (KIT, Homo sapiens, UniProt P10721, A829P); observed = cell-free assay; value = 60%
target = Dual specificity protein kinase TTK (TTK, Homo sapiens, UniProt P33981); observed = binding; value = 100%
target = Ephrin type-A receptor 5 (EPHA5, Homo sapiens, UniProt P54756); observed = cell-free assay; value = 100%
target = Tyrosine-protein kinase Fer (FER, Homo sapiens, UniProt P16591); observed = binding; value = 97%
target = Protein-tyrosine kinase 6 (PTK6, Homo sapiens, UniProt Q13882); observed = binding; value = 89%
target = Mitotic checkpoint serine/threonine-protein kinase BUB1 (BUB1, Homo sapiens, UniProt O43683); observed = binding; value = 75%
target = Casein kinase I isoform alpha (CSNK1A1, Homo sapiens, UniProt P48729); observed = cell-free assay; value = 96%
target = Mast/stem cell growth factor receptor Kit (KIT, Homo sapiens, UniProt P10721, V559D/V654A); observed = cell-free assay; value = 94%
target = Mitogen-activated protein kinase 13 (MAPK13, Homo sapiens, UniProt O15264); observed = binding; value = 100%
target = 1-phosphatidylinositol 3-phosphate 5-kinase (PIKFYVE, Homo sapiens, UniProt Q9Y2I7); observed = cell-free assay; value = 88%

Set 2
Target: RNA binding protein fox-1 homolog 2, RRM domain, GST-SBP tag (RBFOX2, Homo sapiens, UniProt O43251-10, residues 100-194)
Method: RNA Bind-n-Seq
Molecule type: RNA
Sample: in vitro
Tested at: 365 nM
Setting: natural RNA segment, single round, ends assumed
Baseline: no-protein control
Direction: higher = stronger binding
Quantity: RBNS enrichment (R)
Target sequence (chain): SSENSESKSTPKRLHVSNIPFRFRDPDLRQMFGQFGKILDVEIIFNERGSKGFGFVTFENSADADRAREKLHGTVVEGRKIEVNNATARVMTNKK
Strand = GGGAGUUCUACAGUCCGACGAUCCCGGGCCCAGCCCAGCCCUUCCUGAAGCCAGAAGCGUUGCUGAGUGUGUUCCCUGUAACUGCCCCAUAGUGGGCAGCCCUGGAGGAACAAGGGGCUGGCUGUCCUGGGCUUGGAAUUCUCGGGUGCCAA; value = 0.4
Strand = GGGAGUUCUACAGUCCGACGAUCUGAGUCUGAGAUUUCGUUGUUUUUAAUACUUUAAAAAAAAAAGUCUCUUUUAGAAAGAAAAUGAUAUAUAGGGUAAGCGGAAUUUGGGAGCCACGGCCCCAGUAAGUAAUUGGAAUUCUCGGGUGCCAA; value = 0.547
Strand = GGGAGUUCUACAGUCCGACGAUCGUUGUCAAAUUGAUUAGUUUGCCUAAUUCAUGUUUUCACUUAAAAGUAUCAGAGGUGAAUGCACAGUGAAGGGUGAUUUGUGGGGAGGGAGCAUUUUUGGUGGUCUUGGGUGGAAUUCUCGGGUGCCAA; value = 2.13
Strand = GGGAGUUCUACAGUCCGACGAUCCCAGGGUUCUCCCCCCUACACCCUCUGCAGGUGGAGAGAGAGAAGCUGGGCCCAGCCGGGCCGUGCCUGCUGGCACAGACGCCUUAACGCUGUGUGUAUGACUGUGUGACUGGAAUUCUCGGGUGCCAA; value = 0.3
Strand = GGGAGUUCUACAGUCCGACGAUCACGGAGGCAGAGAAAAGAGAAAGUGUUUUAUAUACGGUACUUAUUUAAUAGCCCUUUUUAAUUAGAAAUUAAAACAGUUAAUUUAAUUAAAGAGUAGGGUUUUUUUCAGUUGGAAUUCUCGGGUGCCAA; value = 0.525
Strand = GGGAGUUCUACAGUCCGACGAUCGUUUACUACAUUUUUUAUUGAAGGUCAGCCAUGCUUUCUGUAUUAUAUUGCAUAUGAAAUUGUUUACAAAAGAAACACUAACUCAUACUUCUCUUUAUUGGUUGCAAGUGUGGAAUUCUCGGGUGCCAA; value = 0.453
Strand = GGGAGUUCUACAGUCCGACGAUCAGGGUGAAGGGGAGAGGAGGAGCUAGUAUUAGCCAAAGUGAUAGAAAACCUGAUUUUCAUCUCGUACUACCAAGCUUUACAACAUUGAAAGUGGCCUAGUAACUCUGAGUUGGAAUUCUCGGGUGCCAA; value = 0.555
Strand = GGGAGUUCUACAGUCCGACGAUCAUCACAGGUUCAGAGAUCUCUUAGGGAAGUUGCUCAAAAUCCUGUUUGUAGUUAAGGUGUCUGGGGUAACAGAUAACAUGGGCCUGAGGGAGCCCUCAGGUCUAUAGGAAUGGAAUUCUCGGGUGCCAA; value = 0.322

Set 3
Target: Tyrosine-protein kinase Fyn (FYN, Homo sapiens, UniProt P06241)
Sequence of UniProt P06241 (whole entry, looked up): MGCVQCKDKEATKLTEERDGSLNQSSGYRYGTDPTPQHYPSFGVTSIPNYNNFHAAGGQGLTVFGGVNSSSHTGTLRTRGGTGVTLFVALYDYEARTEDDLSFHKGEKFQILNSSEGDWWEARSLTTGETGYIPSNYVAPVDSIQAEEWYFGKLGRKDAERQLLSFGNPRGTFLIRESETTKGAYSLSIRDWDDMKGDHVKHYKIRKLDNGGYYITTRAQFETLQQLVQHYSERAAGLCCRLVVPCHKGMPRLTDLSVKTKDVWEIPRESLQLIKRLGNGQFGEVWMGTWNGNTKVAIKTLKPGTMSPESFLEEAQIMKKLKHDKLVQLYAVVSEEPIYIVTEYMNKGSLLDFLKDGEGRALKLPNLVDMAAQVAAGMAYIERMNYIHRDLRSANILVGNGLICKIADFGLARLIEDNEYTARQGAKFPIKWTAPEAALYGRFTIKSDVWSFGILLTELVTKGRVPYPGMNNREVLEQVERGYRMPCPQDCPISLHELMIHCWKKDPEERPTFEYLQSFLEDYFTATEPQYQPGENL
Observed: enzyme activity
Action: inhibitor
Tested at: 0.5 µM
Baseline: control
Quantity: remaining activity
Compound = N#C/C(=C(/N)SC1C=CC=CC1)c1cccc(C(O)c2ccncc2)c1 (stereo not drawn); value = 101%
Compound = c1cc(-c2cnn3cc(-c4ccc(OCCN5CCCCC5)cc4)cnc23)ccn1; value = 20.9%
Compound = NC(=O)c1ccc(-c2nc(-c3ccc4c(c3)OCCO4)c(-c3ccccn3)[nH]2)cc1; value = 97.8%
Compound = Nc1nc(Nc2ccc(S(N)(=O)=O)cc2)nn1C(=S)Nc1c(F)cccc1F; value = 24.8%
Compound = COc1cc2c(N3CCN(C(=O)Nc4ccc(OC(C)C)cc4)CC3)ncnc2cc1OCCCN1CCCCC1; value = 94.8%
Compound = CNc1cc2c(Nc3cccc(Br)c3)ncnc2cn1; value = 91.7%
Compound = CC(C)n1cnc2c(Nc3cccc(Cl)c3)nc(NCCO)nc21; value = 60.4%
Compound = O=C(O)/C=C/c1cc(Br)c(Br)c(Br)c1Br; value = 97.9%
Compound = FC(F)(F)c1ccc(/C=C/c2nc(COc3ccc(CCCCn4ccnn4)cc3)co2)cc1; value = 97%
Compound = CC(C)N(CCC(=O)c1ccc2ccccc2c1)Cc1ccccc1; value = 95.3%
Compound = CCCCc1c(-c2ccc(O)cc2)[nH]c2nccnc12; value = 62.1%
Compound = CCN(CC)CCCCN1c2ccccc2Oc2ccc(Cl)cc21; value = 107%
Compound = Clc1ccc(Nc2nnc(Cc3ccncc3)c3ccccc23)cc1; value = 104%
Compound = COc1cc2c(Nc3ccc(Br)cc3F)ncnc2cc1OCC1CCN(C)CC1; value = 48.2%
Compound = N#CC(c1ccnc(NCCc2cccnc2)n1)c1nc2ccccc2s1 (stereo not drawn); value = 93.1%
Compound = O=Nc1c(-c2c(O)[nH]c3ccccc23)[nH]c2ccccc12; value = 43.3%
Compound = O=C1NC(=O)/C(=C/c2ccc3c(c2)OC(F)(F)O3)S1; value = 96%

Set 4
Target: TAR DNA-binding protein 43, full length, His tag (TARDBP, Homo sapiens, UniProt Q13148, residues 1-414)
Method: RNA Bind-n-Seq
Molecule type: RNA
Sample: in vitro
Tested at: 20 nM
Setting: 6-mer, flanks averaged, single round
Together with: 150 mM KCl
Baseline: input library
Direction: higher = stronger binding
Quantity: 6-mer enrichment (R)
Strand = CUAAGG; value = 0.991
Strand = GAAACA; value = 0.699
Strand = CGUGCU; value = 0.755
Strand = UACUCG; value = 0.586
Strand = UUACGU; value = 0.635
Strand = UGGUUC; value = 0.689
Strand = CGGGAU; value = 1.82
Strand = UCUGAG; value = 0.842

Repeated from above (set 4):
Strand = CUAAGG; value = 0.991
Strand = GAAACA; value = 0.699
Strand = CGUGCU; value = 0.755
Strand = UACUCG; value = 0.586
